Assay results of several laboratories.
Each line is one published result; not all experiments were run side by side. Numbers after ± are the reported error.
UniProt P10721, sequence (whole entry, looked up): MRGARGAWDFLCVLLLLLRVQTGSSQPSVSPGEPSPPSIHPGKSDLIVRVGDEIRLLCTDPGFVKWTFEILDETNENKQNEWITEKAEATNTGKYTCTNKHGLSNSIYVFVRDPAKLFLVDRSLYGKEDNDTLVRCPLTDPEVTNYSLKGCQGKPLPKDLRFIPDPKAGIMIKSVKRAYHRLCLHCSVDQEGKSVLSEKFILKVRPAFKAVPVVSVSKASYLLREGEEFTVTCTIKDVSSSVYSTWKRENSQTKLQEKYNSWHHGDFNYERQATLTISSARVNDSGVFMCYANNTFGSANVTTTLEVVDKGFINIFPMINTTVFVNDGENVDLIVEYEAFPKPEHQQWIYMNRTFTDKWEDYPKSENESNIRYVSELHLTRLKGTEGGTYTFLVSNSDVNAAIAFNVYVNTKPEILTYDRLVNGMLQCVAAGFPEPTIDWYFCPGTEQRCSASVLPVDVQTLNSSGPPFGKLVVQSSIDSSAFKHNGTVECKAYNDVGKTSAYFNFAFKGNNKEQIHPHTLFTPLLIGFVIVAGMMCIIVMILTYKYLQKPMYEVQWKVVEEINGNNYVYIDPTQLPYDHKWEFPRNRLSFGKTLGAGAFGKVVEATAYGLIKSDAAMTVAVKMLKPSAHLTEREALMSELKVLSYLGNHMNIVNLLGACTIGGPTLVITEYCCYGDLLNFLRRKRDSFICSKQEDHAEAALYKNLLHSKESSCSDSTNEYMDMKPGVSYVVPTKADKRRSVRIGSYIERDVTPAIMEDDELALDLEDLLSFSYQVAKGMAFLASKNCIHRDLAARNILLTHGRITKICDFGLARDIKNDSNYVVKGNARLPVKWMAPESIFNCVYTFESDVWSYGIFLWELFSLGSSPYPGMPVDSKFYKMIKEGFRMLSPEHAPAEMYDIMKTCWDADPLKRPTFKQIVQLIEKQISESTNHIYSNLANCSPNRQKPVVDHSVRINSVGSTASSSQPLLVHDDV

| Compound | target or system | assay | system | setting | how to read | endpoint | result |
| --- | --- | --- | --- | --- | --- | --- | --- |
| COc1ccc(C(=O)CCc2cc(C(CCc3ccc(O)cc3OC)c3ccc(O)cc3)c(O)cc2OC)cc1 (racemic) | – | – | human blood | 30 µM, together with: A23187 | – | 4-HDHA level | 38 ± 7 pg/mL |
| C=CC(=O)Nc1cccc(Cn2ncc3cnc(Nc4cnn(CCOC)c4)nc32)c1 | MLK1 human | binding, KINOMEscan | – | 100 nM | lower = stronger binding | percent of control | 51% |
| NC[C@@H](C(=O)Nc1ccc(-c2cn[nH]c2)cc1)c1ccccc1 | – | tonometry | NZW rabbit, magnetic bead-induced ocular hypertension | ocular, 0.03%, 48 h | – | IOP | 35.6 mmHg |
| C=CC(=O)N1CC2C(=O)N(CCN(C)C)c3c(c4cc(Cl)c(-c5c(O)cccc5F)nc4n(-c4c(C)ccnc4C(C)C)c3=O)N2CC1C (stereo not drawn) | – | – | NCI-H358, mouse xenograft | oral, 10 mg/kg once daily | – | tumour growth inhibition | 103% |
| COc1cc(O)ccc1CCC(c1ccc(O)cc1)c1cc2c(c(C)c1O)OC(c1ccc(O)cc1)CC2 (mixture of isomers) | – | – | human blood | 10 µM, together with: A23187 | – | PGD2 level | 4 ± 2 pg/mL |
| COC1CN([C@H]2CC[C@H]([C@@]3(C)Oc4c(Cl)cc(C(=O)NCc5c(SC)cc(C)[nH]c5=O)c(C)c4O3)CC2)C1 | – | RNA-seq, refers to: RHBDF1 mouse homolog | mouse, HT-1376 xenograft, whole blood | dose not given | baseline: vehicle | log2 fold change | 4.64 |
| Cc1nn(-c2cccc(N)c2)c(=O)c2cnc(Nc3ccc(N4CCNCC4)cc3)nc12 | KIT (Homo sapiens, UniProt P10721) | kinase activity, inhibitor, SelectScreen kinase profiling | – | – | – | IC50 | > 10 µM |
| CN1CCC[C@]1(C)/C=C/S(=O)(=O)NC(=O)Nc1c2c(cc3c1CCC3)CCC2 | – | – | human, whole blood ex vivo | 250 mg single dose, 24 h, single ascending dose, together with: LPS and ATP | – | IL-1β inhibition | 98.9% |
| CC(CCC(=O)NCc1ccc(C(=O)NO)cc1)C1CCC2C3C(O)CC4CC(O)CCC4(C)C3CCC12C (stereo not drawn) | – | refers to: Glyco-conj | PCK rat (Pkhd1 mutant), peripheral blood | oral gavage, dose not given, 5 months | baseline: total bile acids | relative abundance | 14% |
| C=C(NC(=O)c1csc(-c2nc3c(cc2O)-c2nc(cs2)C(=O)NC(C(C)O)C(=O)NC(=C(C)OC)c2nc(cs2)C(=O)NC2c4nc(cs4)C(=O)NC(COC(=O)c4c5c6c(cccc6n4O)COC(=O)C(OC4CC(C)(O)C(N(C)C)C(C)O4)C2OC5)c2nc-3cs2)n1)C(N)=O (stereo not drawn) | – | – | ICR mice, Streptococcus pneumoniae ATCC 49169 infected, immunocompromised, blood | intravenous, 2 mg/kg/day twice daily | – | Cmax | 91.3 ng/mL |
| C=CC(=O)N1[C@@H](c2ccc3c(c2)OCO3)c2[nH]c3ccccc3c2C[C@H]1C(=O)N1CCN(C)CC1 | human cyclin E1 wild type-3xFLAG:CDK2 | co-IP with TMT proteomics, refers to: HNRNPU | – | concentration not given, Q00839 | baseline: wild type DMSO | relative co-enrichment | 103% |
| N[C@@H](CNC(=O)N[C@@H](CS)C(=O)NCC(=O)O)C(=O)O | – | Western blot | mouse C57BL/6, Aβ i.c.v. model, brain | intranasal, dose not given | – | RAGE activation | decreased |
| Nc1ncc(-c2cc(-c3cnn(CC(F)(F)F)c3)ncc2F)nc1C(=O)NC1CNCC(F)C1 (stereo not drawn) | MST2 | KINOMEscan | – | 1 µM | baseline: DMSO control | remaining binding | 79% |
| O=[N+]([O-])[O-].O=c1c(C=NN=C([S-])Nc2ccccc2)coc2ccccc12.[Cu+2].c1ccc(-c2ccccn2)nc1 | – | DNA cleavage | supercoiled pUC19 DNA | 100 µM, 4 h, 37 °C, no reducing agent, together with: DNA 40 µM | – | nicked circular DNA form | 10% |
| CC(=O)[O-].O.O.O.O.[Ni+2].[O-]c1ccc(Br)cc1C=NCCN1CCOCC1 | – | DPPH radical scavenging | – | 40 µM | – | inhibition | 12.4% |

Repeated from above:
| Compound | target or system | assay | system | setting | how to read | endpoint | result |
| --- | --- | --- | --- | --- | --- | --- | --- |
| COc1cc(O)ccc1CCC(c1ccc(O)cc1)c1cc2c(c(C)c1O)OC(c1ccc(O)cc1)CC2 (mixture of isomers) | – | – | human blood | 10 µM, together with: A23187 | – | PGD2 level | 4 ± 2 pg/mL |
| COC1CN([C@H]2CC[C@H]([C@@]3(C)Oc4c(Cl)cc(C(=O)NCc5c(SC)cc(C)[nH]c5=O)c(C)c4O3)CC2)C1 | – | RNA-seq, refers to: RHBDF1 mouse homolog | mouse, HT-1376 xenograft, whole blood | dose not given | baseline: vehicle | log2 fold change | 4.64 |
